Measurements collected from several papers.
Every numbered part comes from another study and shows a few of its results, in no order.

Set 1
Target: Ras GTPase-activating protein-binding protein 1, full length (G3BP1, Homo sapiens, UniProt Q13283)
Chain of UniProt Q13283 (whole entry, looked up): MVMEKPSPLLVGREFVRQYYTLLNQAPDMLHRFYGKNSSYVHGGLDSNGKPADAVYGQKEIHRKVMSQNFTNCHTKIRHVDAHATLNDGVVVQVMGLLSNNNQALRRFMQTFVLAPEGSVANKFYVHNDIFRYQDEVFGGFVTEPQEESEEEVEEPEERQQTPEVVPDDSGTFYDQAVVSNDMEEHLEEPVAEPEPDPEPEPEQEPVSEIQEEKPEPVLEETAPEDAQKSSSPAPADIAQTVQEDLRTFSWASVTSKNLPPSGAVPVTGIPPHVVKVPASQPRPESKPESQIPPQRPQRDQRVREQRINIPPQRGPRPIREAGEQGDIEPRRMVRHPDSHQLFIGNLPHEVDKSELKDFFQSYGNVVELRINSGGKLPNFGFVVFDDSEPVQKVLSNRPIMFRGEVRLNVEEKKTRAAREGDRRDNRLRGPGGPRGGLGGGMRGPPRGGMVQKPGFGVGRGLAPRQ
Method: RNA Bind-n-Seq
Molecule type: RNA
Medium: in vitro
Tested at: 200 nM
Setting: whole 134-nt RNA, ends assumed
Added: 150 mM KCl
Reference: input library
Reading: higher = stronger binding
| Sequence | log2 enrichment |
| --- | --- |
| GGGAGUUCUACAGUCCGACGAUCCCUCAAGUCCUGUGCUACACAUCGUAUGUACCGAAUCGGUGGGGUGGGUGGGGAAAGUAUUAUGUUACGCCGUUCGGAUCUGCACUUCCAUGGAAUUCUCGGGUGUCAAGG | 1.27 |
| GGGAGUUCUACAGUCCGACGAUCGUCCUGUGCUACACAUCGUAUGUACCGAAUCGGGGAAAAAGGGGAAAAAGGAAAAAGGAAAGUAUUAUGUUACGCCGUUCGGAUCUGCACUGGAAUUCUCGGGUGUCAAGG | -0.403 |
| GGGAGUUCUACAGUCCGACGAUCCACAGACAACACGCACCCACACAGACACAGAGGGAAGGGGUUGGGAUGGGGACGGGGUGCACAGCAGGGCGGGGUAGGACCCCAGCCCCUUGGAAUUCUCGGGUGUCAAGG | 1.88 |
| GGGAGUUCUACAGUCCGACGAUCGCAGGAAGUAAAAACAAAUGGAAAUGCUUCGGAUAGUGGCAGGGGUGGGGGUUGCUAAGGAAAGGGUGGGAUGGGAGUCGGUAAAGAGUUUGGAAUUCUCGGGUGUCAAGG | 0.981 |
| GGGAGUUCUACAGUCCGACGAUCCUGUGCUACACAUCGUAUGUACCGAAUCGGUUUUUUUGGGGUUUUUUUGGGGUUUUUUUGGAAAGUAUUAUGUUACGCCGUUCGGAUCUGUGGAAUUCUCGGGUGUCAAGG | -0.891 |

Set 2
Target: Histone acetyltransferase KAT6A, both winged helices, GST fusion (KAT6A, Homo sapiens, UniProt Q92794, residues 1-181)
Method: protein binding microarray
Molecule type: double-stranded DNA, one strand shown
Medium: in vitro
Tested at: not given
Setting: 8-mer, flanks averaged, mean of 2 arrays, mostly near background
Reference: not given
Reading: higher = stronger binding
Residues (chain): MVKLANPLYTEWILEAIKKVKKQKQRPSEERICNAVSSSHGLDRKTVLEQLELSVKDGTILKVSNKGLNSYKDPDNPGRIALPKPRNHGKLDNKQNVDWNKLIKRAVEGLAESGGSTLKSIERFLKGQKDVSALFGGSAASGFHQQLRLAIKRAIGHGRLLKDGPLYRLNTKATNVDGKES
| Sequence | E-score |
| --- | --- |
| ACAATGGA | -0.0991 |
| CCTAGTCG | 0.0457 |
| AACAACCC | 0.00061 |
| CACCCGGG | 0.226 |
| ACAAGATA | -0.101 |
| ACAGACTA | -0.139 |
| CGTAATTC | 0.0464 |
| GAATGATA | 0.02 |
| ATTCCGCG | 0.239 |
| GGCAGAAC | -0.0338 |

Set 3
Target: Sal-like protein 4, full length isoform A (SALL4, Homo sapiens, UniProt Q9UJQ4, residues 1-1053)
Chain of UniProt Q9UJQ4 (whole entry, looked up): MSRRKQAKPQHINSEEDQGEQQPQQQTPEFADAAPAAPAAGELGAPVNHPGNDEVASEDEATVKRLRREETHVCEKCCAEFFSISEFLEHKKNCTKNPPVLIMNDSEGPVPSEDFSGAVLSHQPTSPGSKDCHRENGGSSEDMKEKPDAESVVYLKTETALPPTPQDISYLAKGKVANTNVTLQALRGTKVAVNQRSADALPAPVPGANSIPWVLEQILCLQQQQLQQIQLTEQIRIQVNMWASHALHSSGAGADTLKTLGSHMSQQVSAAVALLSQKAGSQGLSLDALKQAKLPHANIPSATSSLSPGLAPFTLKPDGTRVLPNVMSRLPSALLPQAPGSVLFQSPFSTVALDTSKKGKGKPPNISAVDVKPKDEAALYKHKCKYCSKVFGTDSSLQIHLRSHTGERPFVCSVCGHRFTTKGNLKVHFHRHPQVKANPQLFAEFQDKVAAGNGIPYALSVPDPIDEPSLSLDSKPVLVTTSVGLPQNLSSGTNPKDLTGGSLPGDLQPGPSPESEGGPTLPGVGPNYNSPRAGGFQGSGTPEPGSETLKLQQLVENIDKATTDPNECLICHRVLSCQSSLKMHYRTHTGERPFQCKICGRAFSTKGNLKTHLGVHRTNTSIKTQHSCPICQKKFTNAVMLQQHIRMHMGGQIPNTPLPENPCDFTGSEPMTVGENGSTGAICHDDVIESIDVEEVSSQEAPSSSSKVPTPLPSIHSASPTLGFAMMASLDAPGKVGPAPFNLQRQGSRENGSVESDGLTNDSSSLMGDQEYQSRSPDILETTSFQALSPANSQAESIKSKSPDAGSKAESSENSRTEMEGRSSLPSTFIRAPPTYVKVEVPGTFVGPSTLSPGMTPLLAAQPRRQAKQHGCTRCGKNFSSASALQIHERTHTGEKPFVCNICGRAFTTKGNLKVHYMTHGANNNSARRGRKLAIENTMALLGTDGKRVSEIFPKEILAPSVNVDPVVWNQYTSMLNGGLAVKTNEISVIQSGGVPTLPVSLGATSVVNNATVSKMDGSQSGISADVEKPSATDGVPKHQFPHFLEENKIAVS
Method: universal PBM
Molecule type: double-stranded DNA, one strand shown
Medium: in vitro
Tested at: 600 nM
Setting: 8-mer, flanks averaged, mean of replicates
Reading: higher = stronger binding
| Sequence | E-score |
| --- | --- |
| ACTAGTAC | 0.0257 |
| AGCGTAAG | -0.123 |
| ACAGGGCT | -0.287 |
| AAACTAGT | 0.123 |
| GGGATGAA | -0.0577 |
| CTCTGGCA | -0.2 |
| GAACAACC | 0.0635 |
| ATAAGCCG | 0.129 |
| CCGTTATC | 0.117 |
| AGGCAGTC | -0.189 |
| GACAAACC | -0.0416 |
| ACACAGCG | 0.014 |

Other studies, line by line
| Molecule | target | test | system | setting | how to read | measurement | result |
| --- | --- | --- | --- | --- | --- | --- | --- |
| PhoQ, residues 284 288 289 292 302 303 SQSLSM | PhoP, residues 12 14 15 18 19 NHTVL (Escherichia coli, UniProt P23836) | Sort-seq, refers to: YFP reporter | E. coli | PhoQ-PhoP variant library, added: 10 µM Mg2+ | reference: high Mg2+ state, higher = stronger signaling | fold induction | 30.2 |

A few entries again (set 2):
| Sequence | E-score |
| --- | --- |
| GGCAGAAC | -0.0338 |
| CCTAGTCG | 0.0457 |
